Published values collected from several papers.
Compare with care: the assays were run in different laboratories. Several values in a cell are separate wells, animals, samples, runs or records. ± marks the error that the study gave. Values after ≈ are worked out from the molar mass of the structure shown.

`O.O.O.O.O.O.[Cl-].[Cl-].[Co+2]` — result for “cobalt in urine”: 411 µg/L (rat female, urine; oral, 10 mg/kg single, day 2).
With `O=c1ccc2ccc3occc3c2o1` the accuracy was 94.8% (three freeze-thaw cycles; rat plasma; 1000 ng/mL, -70 °C freeze).
`CO[C@H]1C[C@@H]2CC[C@@H](C)[C@@](O)(O2)C(=O)C(=O)N2CCCC[C@H]2C(=O)O[C@H]([C@H](C)C[C@@H]2CC[C@@H](OC(=O)NCCOCCOCCOCCOCCOCCOCCOCCOCCC(=O)N3CCc4cc(Cn5nc(-c6ccc7oc(N)nc7c6)c6c(N)ncnc65)ccc4C3)[C@H](OC)C2)C[C@@H](O)[C@H](C)/C=C(\C)[C@@H](O)[C@@H](OC)C(=O)[C@H](C)C[C@H](C)/C=C/C=C/C=C/1C`: “maculopapular rash incidence” 25% (patients with advanced solid tumours; intravenous, 16 mg weekly, any grade).
For `CCC[C@@](N)(CO)CCc1ccc(OCCCCCC(C)C)cc1`, the AUC(0-inf) was 25.3 µM·h (hound dogs, male; oral, 20 mg/kg, capsule, fed state, geometric mean).
Under “patients with serious adverse reactions”, `CC(=O)c1c(C)c2cnc(Nc3ccc(C4CCN(CCS(C)(=O)=O)CC4)cn3)nc2n(C2CCCC2)c1=O` is recorded as 0% (HR+/HER2- advanced breast cancer patients; oral, 25 mg, dose escalation).
`CC(C)[C@@H](CS(=O)(=O)C(C)C)N1C(=O)[C@@](C)(CC(=O)O)C[C@H](c2cccc(Cl)c2)[C@H]1c1ccc(Cl)cc1` has a median concentration of 630 nmol/L (MALDI-MSI; B6.129S7-Rag1tm1Mom/J orthotopic PDX mice, tumour; 25 mg/kg two doses, 2 h after second dose).
For `CCc1cc(C(=O)NC)c2nccc(N3CCc4c(cc(Cn5ccnc5)cc4-c4cn(C)nc4C(F)(F)F)C3=O)c2c1`, the amount excreted was 62000 ± 50000 ng (Sprague Dawley rats, male, bile duct-cannulated, bile; oral, 50 mg/kg, 0--24 h).
`[Cl][212Pb][Cl]` has a tissue uptake of 7.66 ± 0.27 %ID/g (refers to: 212Pb; athymic mouse, C4-2 prostate xenograft, femur; intravenous, 2 h, below quantification limit).
The blood chemistry of `CC(C)Nc1ccnc(Nc2cccc(-c3cccnc3)c2)n1` is reported as 1.8 g/dL (refers to: globulin; mouse, blood; intraperitoneal, 3 mg/kg).
`COc1cc2c(Oc3ccc4[nH]c(C)cc4c3F)ccnc2cc1OCC1(N)CC1` — result for “grade 3 sinus tachycardia”: 0% (paediatric recurrent refractory sarcoma; concentration not given, whole group).
For `C[C@@H]1NC(=O)[C@H](CCCCNC(=O)CO/N=C/C(=O)NCCCC[C@@H]2NC(=O)[C@@H](Cc3ccccc3)NC(=O)[C@H](CC(=O)O)NC(=O)CNC(=O)[C@H](CCCNC(=N)N)NC2=O)NC(=O)CNC(=O)[C@@H]2CCCN2C(=O)[C@H](CCCCNC(=O)CO/N=C/C(=O)NCCCC[C@@H]2NC(=O)[C@@H](Cc3ccccc3)NC(=O)[C@H](CC(=O)O)NC(=O)CNC(=O)[C@H](CCCNC(=N)N)NC2=O)NC(=O)[C@H](CCCCNC(=O)CCNC(=O)CCNC(=O)CCNC(=O)[C@H](CCCCN)NC(=O)[C@H](Cc2ccccc2)NC(=O)CNC(=O)CN2CCCNCCNCCCNCC2)NC(=O)[C@H](CCCCNC(=O)CO/N=C/C(=O)NCCCC[C@@H]2NC(=O)[C@@H](Cc3ccccc3)NC(=O)[C@H](CC(=O)O)NC(=O)CNC(=O)[C@H](CCCNC(=N)N)NC2=O)NC(=O)CNC(=O)[C@@H]2CCCN2C(=O)[C@H](CCCCNC(=O)CO/N=C/C(=O)NCCCC[C@@H]2NC(=O)[C@@H](Cc3ccccc3)NC(=O)[C@H](CC(=O)O)NC(=O)CNC(=O)[C@H](CCCNC(=N)N)NC2=O)NC1=O` [copper-64 labelled], the tissue uptake was 14.5 ± 0.51 %ID/g (PET imaging; mouse, U-87 MG tumour xenograft, liver; intravenous, 24 h).
With `Nc1ncnc2c1ncn2[C@@H]1O[C@@H]2COP(=O)([S-])O[C@@H]3[C@H](O)[C@@H](COP([O-])(=S)O[C@H]2[C@H]1O)O[C@H]3n1cnc2c(N)ncnc21.[Na+].[Na+]` (stereo partly shown) the MCHC was 594 ± 7 g/L (non-tumor-bearing mice, blood; intravenous, 1 mg/kg, toxicity study).
`CN1CCN(c2cccc3c2CCN(C(=O)/C=C/c2c(-n4cnnn4)ccc(Cl)c2F)[C@@H]3C(=O)Nc2ccc(C(=O)O)cc2)C(=O)C1` gave a deaths of 0% (healthy human subjects; intravenous infusion, 4 mg/h, 2 h).
For `C[C@@H]1OC(=O)NN=C1c1ccc(-c2ccc(F)cc2)c(C(F)(F)F)c1`, “patients with adverse event” read 0% (phase I trial, refers to: Pneumonitis all grades; human patients; 10 mg loading then 0.5 mg daily).
`Cn1c(-c2ccc(C(N)=O)cc2F)nnc1C(C)(C)Oc1c(F)cc(Cl)cc1F`: “medical device site reaction TEAE” 33.3% (human; oral, 60 mg, single ascending dose).
For `Cc1cccc(Cn2nc(C3CC3)c3c(NC(=O)c4cnc5cc(OCCN6CCN(C)CC6)ccn45)cccc32)n1`, “adverse events incidence” read 9.1% (refers to: Anemia; human platinum-resistant ovarian cancer; oral, dose not given, all-causality).
Under “drug-related blood creatinine increase”, `CNC(=O)c1ccc(-c2cnc3ncc(Cc4ccc5ncccc5c4)n3n2)cc1F` is recorded as 0 patients (patients with advanced HCC; oral, dose not given, grade 3/4, all patients).
`COc1ccc(C[C@@H]2NC(=O)[C@@H](CC(C)C)NC(=O)CNC(=O)[C@H](CC(C)C)NC(=O)[C@@H](CC(C)C)NC(=O)[C@H]3CCCN3C2=O)cc1` has a Papp of 140 ± 50 ×10⁻⁶ cm/s (LC/MS; horizontal lipid bilayer; 10 µM, 1 h, room temperature, 1% DMSO in PBS).
Under “enzyme contribution to clearance”, `CC1(C)[C@H](C=C(Cl)Cl)[C@H]1C(=O)OCc1cccc(Oc2ccccc2)c1` is recorded as 0.07% (refers to: CYP1A2; human, age 5 years, recombinant human CYP1A2; 0.1 µM).
For `CCCCCOc1ccc(-c2ccc(-c3ccc(C(=O)N[C@H]4C[C@@H](O)[C@@H](OCC[N+](C)(C)C)NC(=O)[C@@H]5[C@@H](O)[C@@H](C)CN5C(=O)[C@H]([C@@H](C)O)NC(=O)[C@H]([C@H](O)[C@@H](O)c5ccc(O)cc5)NC(=O)[C@@H]5C[C@@H](O)CN5C(=O)[C@H]([C@@H](C)O)NC4=O)cc3)cc2)cc1`, the potassium was 4.2 mmol/L (adult ICU patients, mITT, serum; dose not given, day 30).
`CCc1ccc(CC/C=C/c2ccc3c(c2)C(=O)CC3)cc1` has a Lymphocyte percentage of 80% (Sprague-Dawley rat, female; oral, 120 mg/kg/day, 14 days).
For `COS(C)(=O)=O`, the tail DNA was 24.4% (alkaline comet; female Hsd:ICR (CD-1) mouse, liver; oral, 40 mg/kg/day, positive control).
`C[C@@H](NC(=O)N1C(=O)[C@H](Cc2ccnc(N)c2)[C@H]1C(=O)O)C1CCCCC1`: “incidence of urine leukocyte esterase positive” 12.5% (healthy adult Chinese volunteers; continuous intravenous infusion, 0.3 mg/kg/h, 5-day infusion, CTCAE 5.0 grading).
The total protein of `CC(C)[C@@H]1NC(=O)CNC(=O)[C@H](CC(N)=O)NC(=O)[C@H](CCCNC(=N)N)NC(=O)[C@H](Cc2ccc(O)cc2)NC(=O)[C@H](C(C)C)NC(=O)[C@@H](NC(=O)[C@@H](NC(=O)[C@H](CC(N)=O)NC(=O)[C@H](Cc2c[nH]c3ccccc23)NC(=O)[C@H](C)NC(=O)[C@H](Cc2ccccc2)NC(=O)CN)C(C)C)CSSC[C@@H](C(=O)N[C@@H](Cc2cnc[nH]2)C(=O)N[C@@H](CCCNC(=N)N)C(=O)N[C@@H](CCCNC(=N)N)C(=O)N[C@@H](C)C(=O)N[C@@H](CC(N)=O)C(N)=O)NC(=O)[C@H](C(C)C)NC(=O)[C@H](CCCNC(=N)N)NC1=O` is reported as 51.6 ± 0.98 g/L (ICR mouse, serum; ip, 10 mg/kg, 3 d dosing, blood day 5).
`Oc1ccc(CSCc2ccc(O)cc2)cc1`: “body weight gain” 7.68 ± 1.2 g (ICR mice male; oral, 6000 mg/kg, day 15, acute toxicity; reference: day 1).
Under “patients with adverse event”, `CN1CC[C@@H](c2c(O)cc(O)c3c(=O)cc(-c4ccc(C(F)(F)F)cc4Cl)oc23)[C@@H]1CO` is recorded as 0% (refers to: Epistaxis; relapsed B-cell malignancies; oral, 200 mg, grade 3-4, intermittent dosing).
For `O=C(Nc1ccccc1)C1CCN(C(=O)Oc2cccnc2)CC1`, “change in Drowsy score” read 32 (psychotropic effects VAS; healthy women; 60 mg; reference: pre-dose baseline, direction not given).
`COc1ccc(-c2c(-c3ccc(C#N)c(F)c3)nc(N3CCC(N)CC3)n(C)c2=O)cc1F` — result for “serious TEAE incidence”: 0% (refers to: wound infection; human patients; oral, 60 mg, dose expansion).
With `COc1ncccc1-c1cnn2ccc(N3CCN(C(=O)OC(C)C)CC3)nc12` the drug concentration was 2900 nM (rat, rotarod test, plasma; 60 mg/kg, 180 min).
`Oc1ccc(CCc2cc(O)cc(O)c2)cc1` — result for “samples above LOQ”: 23.3% (human, both sexes, plasma).
`CC(C)(O)c1cc(Nc2cc(Oc3cn(C4CC4)nc3C3CCOCC3)ccn2)ccn1`: “treatment-emergent adverse events” 0% (refers to: Diarrhea; patients with advanced cancer; oral).
`COc1ncnn2ccc(-c3cnc4nc(C)n(Cc5nnc([C@@H](C)F)o5)c4c3)c12`: “incidence of Stomatitis” 21.4% (human patients; oral, dose not given, grade 1 adverse drug reaction).
For `CCCSc1ccc2nc(NC(=O)OC)[nH]c2c1`, the alanine aminotransferase was 0.44 U/L (mouse, blood; oral, 50 mg/kg, tolerability, mean).
For `C[C@]1(CO)Cc2ncn(-c3ccc(C#N)c(Cl)c3)c2C(=O)O1`, the tmax was 30 min (human, plasma; 10 mg, first dose fasted).
For `CC[C@H](C)[C@H](NC(=O)[C@H](Cc1ccccc1)NC(=O)[C@H](CCC(=O)O)NC(=O)[C@H](CCCCN)NC(=O)[C@H](C)NC(=O)[C@H](C)NC(=O)[C@H](CCC(N)=O)NC(=O)CNC(=O)[C@H](CCC(=O)O)NC(=O)[C@H](CC(C)C)NC(=O)[C@H](Cc1ccc(O)cc1)NC(=O)[C@H](CO)NC(=O)[C@H](CO)NC(=O)[C@@H](NC(=O)[C@H](CC(=O)O)NC(=O)[C@H](CO)NC(=O)[C@@H](NC(=O)[C@H](Cc1ccccc1)NC(=O)[C@@H](NC(=O)CNC(=O)[C@H](CCC(=O)O)NC(=O)[C@H](C)NC(=O)N(N)Cc1c[nH]cn1)[C@@H](C)O)[C@@H](C)O)C(C)C)C(=O)N[C@@H](C)C(=O)N[C@@H](Cc1c[nH]c2ccccc12)C(=O)N[C@@H](CC(C)C)C(=O)N[C@H](C(=O)N[C@@H](CCCNC(=N)N)C(=O)NCC(=O)N[C@@H](CCCNC(=N)N)C(=O)NCC(=O)O)C(C)C`, the clearance was 7.83 mL/min/kg and 6.19 mL/min/kg and 7.02 mL/min/kg (male ICR mice, plasma; intravenous bolus, 1 mg/kg).
The thermodynamic solubility of `CC(C)C[C@H]1C(=O)O[C@H](Cc2ccc(N3CCOCC3)cc2)C(=O)N(C)[C@@H](CC(C)C)C(=O)O[C@H](C)C(=O)N(C)[C@@H](CC(C)C)C(=O)O[C@H](Cc2ccc(N3CCOCC3)cc2)C(=O)N(C)[C@@H](CC(C)C)C(=O)O[C@H](C)C(=O)N1C` is reported as 0.501 µM (≈ 0.561 µg/mL) (HBSS; 18 h, pH 7.4).
With `CC(C)C(=O)OC[C@H]1O[C@@H](n2ccc(NO)nc2=O)[C@H](O)[C@@H]1O` the autosampler stability was 104 ± 2.08% (rat maternal blood dialysate; 250 ng/mL, 6 h, 10 °C, high QC concentration, with: NHC 1000 ng/mL).
